Measurements from different studies.
Parts stem from different laboratories: compare values within a part only.
UniProt P45985, sequence (whole entry, looked up): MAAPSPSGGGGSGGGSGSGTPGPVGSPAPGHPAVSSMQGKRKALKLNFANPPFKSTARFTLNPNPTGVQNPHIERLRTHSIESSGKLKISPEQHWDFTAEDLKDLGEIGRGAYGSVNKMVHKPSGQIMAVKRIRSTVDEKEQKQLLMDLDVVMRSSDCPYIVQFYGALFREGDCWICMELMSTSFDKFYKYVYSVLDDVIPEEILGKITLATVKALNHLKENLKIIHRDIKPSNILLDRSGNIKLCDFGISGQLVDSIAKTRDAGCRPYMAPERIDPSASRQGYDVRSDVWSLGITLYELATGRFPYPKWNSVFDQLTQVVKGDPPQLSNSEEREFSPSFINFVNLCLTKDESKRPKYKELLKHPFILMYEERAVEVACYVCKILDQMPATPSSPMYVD
UniProt Q9BWU1, sequence (whole entry, looked up): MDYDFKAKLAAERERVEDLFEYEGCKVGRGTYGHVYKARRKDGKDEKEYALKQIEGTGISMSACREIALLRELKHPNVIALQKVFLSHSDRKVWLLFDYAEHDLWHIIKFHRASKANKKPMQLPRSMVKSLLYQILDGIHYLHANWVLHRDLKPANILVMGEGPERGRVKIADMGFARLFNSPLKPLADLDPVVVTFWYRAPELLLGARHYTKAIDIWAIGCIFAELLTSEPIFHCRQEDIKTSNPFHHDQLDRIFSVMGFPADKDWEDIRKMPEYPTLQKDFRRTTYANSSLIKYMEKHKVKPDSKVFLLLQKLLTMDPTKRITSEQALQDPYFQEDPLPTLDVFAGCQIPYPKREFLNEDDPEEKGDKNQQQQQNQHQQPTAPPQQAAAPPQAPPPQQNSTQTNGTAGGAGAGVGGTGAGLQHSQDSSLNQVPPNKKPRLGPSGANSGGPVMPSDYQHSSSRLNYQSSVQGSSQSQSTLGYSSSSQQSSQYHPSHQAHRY
UniProt P45984, sequence (whole entry, looked up): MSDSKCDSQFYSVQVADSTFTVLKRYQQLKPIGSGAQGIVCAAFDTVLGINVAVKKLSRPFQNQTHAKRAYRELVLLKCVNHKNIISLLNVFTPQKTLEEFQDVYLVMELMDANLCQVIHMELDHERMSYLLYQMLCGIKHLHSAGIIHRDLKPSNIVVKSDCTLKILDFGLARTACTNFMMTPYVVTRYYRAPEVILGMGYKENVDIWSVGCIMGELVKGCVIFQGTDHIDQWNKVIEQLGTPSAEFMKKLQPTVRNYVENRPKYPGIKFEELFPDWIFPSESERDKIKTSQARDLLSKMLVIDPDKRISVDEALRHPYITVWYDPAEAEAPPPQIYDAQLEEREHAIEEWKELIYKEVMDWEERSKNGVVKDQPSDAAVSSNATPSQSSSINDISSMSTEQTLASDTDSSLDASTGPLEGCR
UniProt P10721, sequence (whole entry, unmodified, looked up): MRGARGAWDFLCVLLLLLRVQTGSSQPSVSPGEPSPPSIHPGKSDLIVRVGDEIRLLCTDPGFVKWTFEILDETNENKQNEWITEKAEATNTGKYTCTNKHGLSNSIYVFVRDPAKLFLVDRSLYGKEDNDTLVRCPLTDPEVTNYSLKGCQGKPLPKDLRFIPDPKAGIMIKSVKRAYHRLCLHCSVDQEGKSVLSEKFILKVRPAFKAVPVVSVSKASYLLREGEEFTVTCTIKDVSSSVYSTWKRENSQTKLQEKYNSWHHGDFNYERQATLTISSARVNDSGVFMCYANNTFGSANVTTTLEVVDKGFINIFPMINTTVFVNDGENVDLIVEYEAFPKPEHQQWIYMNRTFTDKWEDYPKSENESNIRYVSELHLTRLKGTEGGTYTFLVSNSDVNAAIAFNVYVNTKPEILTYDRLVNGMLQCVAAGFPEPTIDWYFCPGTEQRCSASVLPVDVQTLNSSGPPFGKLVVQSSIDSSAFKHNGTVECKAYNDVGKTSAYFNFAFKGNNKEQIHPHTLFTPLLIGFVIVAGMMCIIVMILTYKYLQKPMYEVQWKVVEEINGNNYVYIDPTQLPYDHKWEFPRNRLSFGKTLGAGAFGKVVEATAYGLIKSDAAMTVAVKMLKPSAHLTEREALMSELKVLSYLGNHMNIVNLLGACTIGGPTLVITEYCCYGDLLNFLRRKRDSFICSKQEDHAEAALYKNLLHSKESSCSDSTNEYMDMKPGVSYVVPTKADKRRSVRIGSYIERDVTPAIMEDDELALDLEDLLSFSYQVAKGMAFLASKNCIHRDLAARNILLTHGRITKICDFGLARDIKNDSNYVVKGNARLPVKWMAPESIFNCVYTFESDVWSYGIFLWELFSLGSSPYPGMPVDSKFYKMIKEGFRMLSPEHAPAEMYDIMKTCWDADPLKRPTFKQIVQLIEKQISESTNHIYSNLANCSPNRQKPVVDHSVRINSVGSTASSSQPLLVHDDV

Study 1 — cell line: HEK-293T-ACE2-TMPRSS2; method: cell count; concentration: 10 µM
SMILES	viability
c1ccc(-c2cnc3ccccc3c2)c(OCCn2ccnc2)c1	110%
CC(CNC(=O)c1nc(CCS(=O)(=O)c2ccc(Cl)cc2)no1)c1ccccc1 (centres unmarked)	109%
CCn1ncc(CN2CC(F)(F)C[C@H]2c2nc(C(=O)NC)no2)c1C	92%
Cc1noc2nc(C(F)(F)F)cc(C(F)(F)F)c12	66%
CCCCOc1ccc(Nc2cc(C)nc3ccc(OC)cc23)cc1	74%
CCC(CC)C(=O)NCC(c1ccc(OC)cc1)N1CCCC1 (centres unmarked)	69%
C=CCNC1=C2C[C@@H](C)C[C@H](OC)[C@H](O)[C@@H](C)/C=C(\C)[C@H](OC(N)=O)[C@@H](OC)/C=C\C=C(/C)C(=O)NC(=CC1=O)C2=O	112%
COC[C@@H]1CN(S(=O)(=O)c2ccccc2C)C[C@H]1c1nc(C)no1	92%
Cc1cc(Cl)c2c3c(c(=O)oc2c1)CCC3	80%
COc1ccc(NC(=O)N2CCCC(CNC(=O)c3cccs3)C2)c(C)c1 (centres unmarked)	105%
CN(CCc1cn[nH]c1)C(=O)c1coc(COc2cccc(F)c2F)n1	67%
O=C(Nc1nc2c(s1)CCC2)c1[nH]nc(C2CC2)c1Br	74%
c1cncc(-c2ccnc(N3CCCCC3)n2)c1	98%

Study 2 — concentration: 1 µM
Compound: Cn1cncc1[C@](O)(COc1ccc(C#N)cc1-c1ccc(OC(F)(F)F)cc1)c1ccc(C#N)cc1
target	effect on	method	remaining binding
MAST1 (Homo sapiens, UniProt Q9Y2H9)	cell-free assay	competition with immobilised ligand	92%
CSNK1D (Homo sapiens, UniProt P48730)	cell-free assay	competition with immobilised ligand	100%
CDK19 (Homo sapiens, UniProt Q9BWU1)	–	competition binding	84%
TIE1 (Homo sapiens, UniProt P35590)	cell-free assay	competition with immobilised ligand	85%
DYRK1B (Homo sapiens, UniProt Q9Y463)	cell-free assay	competition with immobilised ligand	58%
CLK3 (Homo sapiens, UniProt P49761)	cell-free assay	competition with immobilised ligand	75%
NEK4 (Homo sapiens, UniProt P51957)	cell-free assay	competition with immobilised ligand	100%
Non-receptor tyrosine-protein kinase TYK2, JH1 (TYK2, Homo sapiens, UniProt P29597)	cell-free assay	competition with immobilised ligand	56%
MAP2K4 (Homo sapiens, UniProt P45985)	cell-free assay	competition with immobilised ligand	89%
KIT (Homo sapiens, UniProt P10721, D816H)	cell-free assay	competition with immobilised ligand	77%
LIM domain kinase 2 (LIMK2, Homo sapiens, UniProt P53671)	cell-free assay	competition with immobilised ligand	72%
MAPK9 (Homo sapiens, UniProt P45984)	cell-free assay	competition with immobilised ligand	89%
CDK17 (Homo sapiens, UniProt Q00537)	cell-free assay	competition with immobilised ligand	100%
MST1R (Homo sapiens, UniProt Q04912)	cell-free assay	competition with immobilised ligand	100%
ERBB2 (Homo sapiens, UniProt P04626)	cell-free assay	competition with immobilised ligand	100%

Study 3 — cell line: HEK-293T/ACE2; effect on: pseudovirus infection; method: counter-screen; organism: VSV pseudotyped with VSV-G; concentration: 10 µM; time: 16 h; relative to: vehicle-treated
SMILES	GFP-positive cells
C#CCN(C)Cc1ccccc1	122%
N[C@@H]1CON=C1O	121%
CN(CCOc1ccc(CC2SC(=O)NC2=O)cc1)c1ccccn1 (centres unmarked)	85.5%
CC(N)C12CC3CC(CC(C3)C1)C2 (centres unmarked)	112%
CCn1cc(C(=O)O)c(=O)c2cc(F)c(N3CCNC(C)C3)c(F)c21 (centres unmarked)	103%
CC(S)C(=O)NCC(=O)O (centres unmarked)	99.3%
C#C[C@]1(O)CC[C@H]2[C@@H]3CCc4cc(OC)ccc4[C@H]3CC[C@@]21C	124%
CCCCC1=NC2(CCCC2)C(=O)N1Cc1ccc(-c2ccccc2-c2nnn[nH]2)cc1	97.3%
CCCCC[C@H](O)/C=C/[C@H]1[C@H](O)CC(=O)[C@@H]1CCCCCCC(=O)O	110%
CCN(C)C(=O)Oc1cccc([C@H](C)N(C)C)c1	109%
Nc1c(CC(=O)O)cccc1C(=O)c1ccc(Br)cc1	104%
CC1=C(/C=C/C(C)=C/C=C/C(C)=C\C(=O)O)C(C)(C)CCC1	99.9%
CCC(=O)O[C@]1(C(=O)CCl)[C@@H](C)C[C@H]2[C@@H]3CCC4=CC(=O)C=C[C@]4(C)[C@@]3(F)[C@@H](O)C[C@@]21C	113%
CC1(C)O[C@@H]2C[C@H]3[C@@H]4C[C@H](F)C5=CC(=O)C=C[C@]5(C)[C@H]4[C@@H](O)C[C@]3(C)[C@]2(C(=O)CO)O1	106%

Study 4 — effect on: enzyme activity; mode: inhibitor; concentration: 77 µM; relative to: untreated
Target: DNA polymerase theta, ATPase domain (POLQ, Homo sapiens, UniProt O75417)
UniProt O75417, sequence (whole entry, unmodified, looked up): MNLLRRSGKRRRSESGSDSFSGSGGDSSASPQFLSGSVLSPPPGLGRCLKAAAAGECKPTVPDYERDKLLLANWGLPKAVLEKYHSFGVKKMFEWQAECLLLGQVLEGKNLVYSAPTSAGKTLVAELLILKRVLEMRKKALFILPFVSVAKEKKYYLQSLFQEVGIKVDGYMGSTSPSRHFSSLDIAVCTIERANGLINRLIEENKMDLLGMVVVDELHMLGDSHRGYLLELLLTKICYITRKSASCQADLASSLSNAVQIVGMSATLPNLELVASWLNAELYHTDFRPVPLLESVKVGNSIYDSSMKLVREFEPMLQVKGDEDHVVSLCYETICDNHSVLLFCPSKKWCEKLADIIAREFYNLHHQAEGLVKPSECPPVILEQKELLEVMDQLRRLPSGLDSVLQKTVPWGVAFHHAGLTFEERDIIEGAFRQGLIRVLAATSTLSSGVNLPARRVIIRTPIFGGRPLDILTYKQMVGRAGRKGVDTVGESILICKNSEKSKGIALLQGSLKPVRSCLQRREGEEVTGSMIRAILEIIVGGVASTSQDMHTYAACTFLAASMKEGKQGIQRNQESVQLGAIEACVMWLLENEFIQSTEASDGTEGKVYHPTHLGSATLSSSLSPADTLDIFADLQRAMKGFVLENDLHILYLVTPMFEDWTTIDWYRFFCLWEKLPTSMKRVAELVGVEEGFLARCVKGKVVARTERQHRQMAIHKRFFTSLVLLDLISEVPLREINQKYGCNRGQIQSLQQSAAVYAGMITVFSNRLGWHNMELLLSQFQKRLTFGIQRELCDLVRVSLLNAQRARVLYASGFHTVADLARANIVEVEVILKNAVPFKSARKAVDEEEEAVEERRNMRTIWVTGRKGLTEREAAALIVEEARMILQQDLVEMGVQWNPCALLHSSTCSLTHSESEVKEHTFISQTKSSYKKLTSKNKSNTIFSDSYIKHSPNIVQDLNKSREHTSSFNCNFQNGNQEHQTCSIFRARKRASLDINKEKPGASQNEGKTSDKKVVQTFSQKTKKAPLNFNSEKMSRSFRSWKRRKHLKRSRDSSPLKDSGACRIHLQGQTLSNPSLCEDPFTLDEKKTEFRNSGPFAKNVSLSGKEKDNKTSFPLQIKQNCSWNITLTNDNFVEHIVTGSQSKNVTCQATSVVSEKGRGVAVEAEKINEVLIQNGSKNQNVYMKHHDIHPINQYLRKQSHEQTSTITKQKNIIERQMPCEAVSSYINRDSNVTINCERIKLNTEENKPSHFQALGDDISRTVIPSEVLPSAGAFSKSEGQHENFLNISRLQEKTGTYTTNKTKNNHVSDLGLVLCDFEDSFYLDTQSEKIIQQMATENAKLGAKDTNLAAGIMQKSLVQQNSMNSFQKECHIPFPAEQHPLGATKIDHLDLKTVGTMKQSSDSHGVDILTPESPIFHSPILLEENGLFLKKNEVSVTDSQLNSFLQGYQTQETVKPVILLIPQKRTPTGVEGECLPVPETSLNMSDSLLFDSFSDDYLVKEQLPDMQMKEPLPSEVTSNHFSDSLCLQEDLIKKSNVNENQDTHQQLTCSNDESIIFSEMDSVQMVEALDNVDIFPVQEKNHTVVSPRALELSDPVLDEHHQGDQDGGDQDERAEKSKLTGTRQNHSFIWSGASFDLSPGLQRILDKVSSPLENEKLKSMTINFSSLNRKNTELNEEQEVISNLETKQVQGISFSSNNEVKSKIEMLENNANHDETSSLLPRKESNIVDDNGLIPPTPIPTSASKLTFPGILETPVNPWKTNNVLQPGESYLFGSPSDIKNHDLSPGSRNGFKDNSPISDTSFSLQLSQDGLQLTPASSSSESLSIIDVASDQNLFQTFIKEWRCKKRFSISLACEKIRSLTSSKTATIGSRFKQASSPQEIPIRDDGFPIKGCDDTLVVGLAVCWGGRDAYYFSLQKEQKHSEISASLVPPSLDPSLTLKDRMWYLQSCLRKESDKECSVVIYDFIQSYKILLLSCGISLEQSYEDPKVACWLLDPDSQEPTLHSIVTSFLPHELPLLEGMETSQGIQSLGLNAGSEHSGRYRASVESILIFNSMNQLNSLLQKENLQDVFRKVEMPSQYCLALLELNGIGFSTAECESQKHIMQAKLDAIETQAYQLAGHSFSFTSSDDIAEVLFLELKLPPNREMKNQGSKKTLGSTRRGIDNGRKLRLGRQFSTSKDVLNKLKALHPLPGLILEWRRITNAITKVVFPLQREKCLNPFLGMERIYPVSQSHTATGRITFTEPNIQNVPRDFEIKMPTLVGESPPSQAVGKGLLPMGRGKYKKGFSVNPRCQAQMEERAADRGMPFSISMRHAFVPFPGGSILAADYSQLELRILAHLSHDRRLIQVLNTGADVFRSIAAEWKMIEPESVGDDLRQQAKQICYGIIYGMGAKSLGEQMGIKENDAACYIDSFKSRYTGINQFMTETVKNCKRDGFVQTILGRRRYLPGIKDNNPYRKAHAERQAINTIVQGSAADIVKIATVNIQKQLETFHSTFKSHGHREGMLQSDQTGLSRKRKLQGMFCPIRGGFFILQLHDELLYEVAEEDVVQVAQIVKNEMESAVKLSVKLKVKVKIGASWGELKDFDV
SMILES	remaining activity
Nc1ccncc1	88.2%
Oc1ccc2c3c1O[C@H]1c4[nH]c5ccccc5c4C[C@@]4(O)[C@@H](C2)N(CC2CC2)CC[C@]314	105%
CS(=N)(=O)CC[C@H](N)C(=O)O (some centres unmarked)	101%
COC(=O)[C@@H](N)CCCNC(=N)N[N+](=O)[O-]	103%
c1cncc(C2=NCCC2)c1	98.5%

Repeated from above (study 3):
SMILES	GFP-positive cells
C#C[C@]1(O)CC[C@H]2[C@@H]3CCc4cc(OC)ccc4[C@H]3CC[C@@]21C	124%
CCCCC1=NC2(CCCC2)C(=O)N1Cc1ccc(-c2ccccc2-c2nnn[nH]2)cc1	97.3%
CCCCC[C@H](O)/C=C/[C@H]1[C@H](O)CC(=O)[C@@H]1CCCCCCC(=O)O	110%
